# Results of several laboratories.
# Lines come from different studies, so protocols differ. Values joined by “and” are separate records of one study, mostly repeats; a detail may differ. ± gives the spread as reported.
# Sequence of UniProt Q14680 (whole entry, looked up): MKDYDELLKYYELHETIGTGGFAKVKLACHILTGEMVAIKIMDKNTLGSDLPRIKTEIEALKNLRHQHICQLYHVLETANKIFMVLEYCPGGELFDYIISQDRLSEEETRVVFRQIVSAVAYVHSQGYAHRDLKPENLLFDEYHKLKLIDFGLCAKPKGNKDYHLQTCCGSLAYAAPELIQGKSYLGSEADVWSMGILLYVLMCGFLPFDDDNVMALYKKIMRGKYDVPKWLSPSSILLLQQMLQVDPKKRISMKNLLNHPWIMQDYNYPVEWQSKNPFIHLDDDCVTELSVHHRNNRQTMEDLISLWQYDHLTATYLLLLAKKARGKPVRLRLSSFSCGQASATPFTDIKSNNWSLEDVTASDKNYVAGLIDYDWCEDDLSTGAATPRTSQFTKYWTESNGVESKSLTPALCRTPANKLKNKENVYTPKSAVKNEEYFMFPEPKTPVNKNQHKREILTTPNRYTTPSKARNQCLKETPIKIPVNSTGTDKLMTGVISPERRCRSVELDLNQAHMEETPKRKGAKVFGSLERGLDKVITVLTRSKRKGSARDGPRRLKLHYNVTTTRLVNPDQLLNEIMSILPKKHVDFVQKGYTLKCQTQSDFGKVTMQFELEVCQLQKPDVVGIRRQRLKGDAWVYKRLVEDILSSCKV
Compound,tested on,assay,system,setting,how to read,quantity,value
CC(C)=CCC/C(C)=C/CCn1cc(CC(C)(P(=O)(O)O)P(=O)(O)O)nn1,,"qRT-PCR, refers to: Slco1b2 and Cyp3a11","CD-1 mice, liver","intravenous, 0.3 mg/kg",reference: control,mRNA level,increased
O=C1NC2(CC2)COc2ncc(F)cc2[C@H]2COCCN2c2ccn3ncc1c3n2,,,"Sprague-Dawley rat, female, liver","oral, 5 mg/kg/day, 4 weeks dosing, end of recovery",,organ-to-body weight ratio,2.83 ± 0.209%
CC[C@H](C)[C@H](NC(=O)[C@H](C)NC(=O)[C@H](CCCCN)NC(=O)[C@H](CCCCN)NC(=O)[C@@H](N)CCCNC(=N)N)C(=O)N[C@@H](CCCCN)C(=O)N[C@@H](CC(C)C)C(=O)N[C@H](C(=O)N[C@@H](CCCCN)C(=O)N[C@@H](CCCCN)C(=O)N[C@@H](CC(C)C)C(=O)N[C@H](C(=O)N[C@@H](CCCCN)C(=O)N[C@@H](CCCCN)C(=O)N[C@@H](CC(C)C)C(=O)N[C@@H](CCCCN)C(=O)N[C@@H](CCCCN)C(=O)N[C@@H](C)C(=O)N[C@@H](CC(C)C)C(=O)N[C@@H](CCCCN)C(=O)O)C(C)C)C(C)C,,,human red blood cells,"0.5 mg/L, 1 h, mean of replicates",,hemolysis,0.601%
COc1cnc2cccc(N3CCc4c(cc(Cn5ccnc5)cc4-c4cn(C)nc4C(F)(F)F)C3=O)c2c1,,,"BALB/c nude mice, MV4-11 xenograft","intraperitoneal, 50 mg/kg, day 28",,body weight,21.6 g and 23.4 g and 22.3 g and 25.4 g and 21.8 g and 23.6 g
CC(C)(C)C(=O)OCOP(=O)(OCOC(=O)C(C)(C)C)C1CCCN(O)C1=O (stereo not shown),SNB-75,,,,,log GI50,-5.85 log M
CC(C)[C@H](NC(=O)[C@@H](NC(=O)[C@H](CCCNC(=N)N)NC(=O)[C@H](CCCNC(=N)N)NC(=O)[C@H](CCCNC(=N)N)NC(=O)[C@H](CCC(N)=O)NC(=O)[C@H](CCCNC(=N)N)NC(=O)[C@H](CCCNC(=N)N)NC(=O)[C@H](CCCCN)NC(=O)[C@H](CCCCN)NC(=O)[C@H](CCCNC(=N)N)NC(=O)CN)[C@@H](C)O)C(=O)N[C@H](C(=O)N[C@@H](CO)C(=O)N1CCC[C@H]1C(=O)O)[C@@H](C)O,,,"ICR mice, female, liver","intranasal, 5 mg/kg daily, 4 weeks",,organ weight,1.39 ± 0.351 g
CC(C)[C@H]1NC(=O)C[C@H]2/C=C/CCSSC[C@@H](NC1=O)C(=O)N[C@H](Cc1cccc3ccccc13)C(=O)NCC(=O)O2,"MAP3K5 (Homo sapiens, UniProt Q99683)","enzyme activity, inhibitor",,10 µM,,inhibition,3.2%
CC[C@H](C)[C@H](NC(=O)[C@H](CO)NC(=O)[C@H](Cc1ccc(O)cc1)NC(=O)[C@H](Cc1ccc(O)cc1)NC(=O)[C@H](CC(N)=O)NC(=O)CNC(=O)[C@H](CO)NC(=O)[C@H](Cc1ccc(O)cc1)NC(=O)[C@H](CO)NC(=O)[C@H](CO)NC(=O)[C@H](CC(N)=O)NC(=O)COCCOCCNC(=O)CN1CCN(CC(=O)O)CCN(CC(=O)O)CCN(CC(=O)O)CC1)C(=O)N[C@@H](CC(C)C)C(N)=O [copper-64 labelled],,dynamic PET,"KPC mouse Ptf1a-CreER tdTomato, metastases","intravenous, dose not given, 1.9 min, 84 d after tamoxifen",,tissue uptake,15.4 %ID/mL
CC(C)[C@@H]1NC(=O)CNC(=O)[C@H](CC(N)=O)NC(=O)[C@H](CCCNC(=N)N)NC(=O)[C@H](Cc2ccc(O)cc2)NC(=O)[C@H](C(C)C)NC(=O)[C@@H](NC(=O)[C@@H](NC(=O)[C@H](CC(N)=O)NC(=O)[C@H](Cc2c[nH]c3ccccc23)NC(=O)[C@H](C)NC(=O)[C@H](Cc2ccccc2)NC(=O)CNC(=O)[C@H](CCCCN)NC(=O)[C@H](Cc2ccccc2)NC(=O)[C@H](Cc2ccccc2)NC(=O)[C@H](CCCCN)NC(=O)OCC2c3ccccc3-c3ccccc32)C(C)C)CSSC[C@@H](C(=O)N[C@@H](Cc2c[nH]cn2)C(=O)N[C@@H](CCCNC(=N)N)C(=O)N[C@@H](CCCNC(=N)N)C(=O)N[C@@H](C)C(=O)N[C@@H](CC(N)=O)C(N)=O)NC(=O)[C@H](C(C)C)NC(=O)[C@H](CCCNC(=N)N)NC1=O,,,"ICR mouse, blood","intramammary, 5 mg/kg, day 5, 3 d dosing",,haematocrit,41.7 ± 1.76%
CC[C@H](C)[C@H](NC(=O)[C@H](CCCCN)NC(=O)CNC(=O)[C@H](CC(C)C)NC(=O)[C@H](Cc1ccccc1)NC(=O)[C@H](CCCCN)NC(=O)[C@H](CO)NC(=O)[C@H](Cc1ccccc1)NC(=O)[C@H](Cc1c[nH]c2ccccc12)NC(=O)[C@H](CCC(N)=O)NC(=O)[C@@H](NC(=O)[C@H](Cc1ccccc1)NC(=O)CCCCCNC(=O)CN1CCN(CC(=O)O)CCN(CC(=O)O)CCN(CC(=O)O)CC1)C(C)C)C(=O)N[C@@H](CCC(=O)O)C(=O)N1CCC[C@H]1C(=O)N[C@@H](CC(=O)O)C(=O)N[C@H](C(=O)N[C@@H](CO)C(=O)N[C@@H](CCC(N)=O)C(=O)N[C@H](C(=O)N[C@@H](CCC(N)=O)C(=O)N[C@@H](CC(=O)O)C(=O)N1CCC[C@H]1C(=O)N[C@@H](CC(N)=O)C(=O)N[C@@H](CC(=O)O)C(=O)N[C@@H](CCC(N)=O)C(=O)N[C@@H](Cc1ccc(O)cc1)C(=O)N[C@@H](CCC(=O)O)C(=O)N1CCC[C@H]1C(=O)N[C@@H](Cc1ccccc1)C(=O)O)C(C)C)C(C)C [copper-64 labelled],,,"GZMB-/- mice, CT26 tumour-bearing, bone","2 h, checkpoint inhibitor-treated",,tissue uptake,0.49 ± 0.05 %ID/g
COc1ccccc1-c1n[nH]c2nc(N[C@H]3CC[C@H](NS(=O)(=O)CC(C)C)CC3)ncc12,,"bead binding, competition bead pull-down, refers to: LINJ.31.0710",Leishmania donovani extract,10 µM,reference: vehicle,relative abundance,0.77
C(#Cc1cncc(OC[C@@H]2CCN2)c1)c1ccccc1,,,"male Sprague-Dawley rat, plasma","oral, 75 mg/kg, 4 h",,concentration,360 ng/mL
CCCCC[C@@H]1NC(=O)[C@@H](C)N(C)C(=O)[C@H](CCCCC)N(C)C(=O)[C@@H](C)N(C)C(=O)[C@H](CCCCC)NC(=O)[C@@H](C)N(C)C(=O)[C@H](CCCCC)N(C)C(=O)[C@@H](C)N(C)C1=O,,"PAMPA, HPLC-UV",,"500 µM, pH 7.4",,log Papp,-5.4 ± 0.05
CC[C@H](C)[C@H](NC(=O)[C@H](Cc1ccccc1)NC(=O)[C@H](CCC(=O)O)NC(=O)[C@H](CCCNC(=N)N)NC(=O)[C@@H](NC(=O)[C@H](C)NC(=O)[C@H](CCC(=O)O)NC(=O)[C@H](CCC(=O)O)NC(=O)[C@H](CCC(=O)O)NC(=O)[C@H](CC(C)C)NC(=O)[C@H](Cc1ccc(O)cc1)NC(=O)[C@H](CCCCN)NC(=O)[C@H](CO)NC(=O)[C@H](CC(C)C)NC(=O)[C@H](CC(=O)O)NC(=O)[C@H](CO)NC(=O)[C@@H](NC(=O)[C@H](Cc1ccccc1)NC(=O)[C@@H](NC(=O)CNC(=O)[C@H](CCC(N)=O)NC(=O)[C@@H](CO)NC(=O)[C@@H](N)Cc1c[nH]cn1)[C@@H](C)O)[C@@H](C)O)C(C)C)C(=O)N[C@@H](C)C(=O)N[C@@H](Cc1c[nH]c2ccccc12)C(=O)N[C@@H](CC(C)C)C(=O)N[C@@H](CCCCN)C(=O)N[C@@H](CC(N)=O)C(=O)NCC(=O)NCC(=O)N1CCC[C@H]1C(=O)N[C@@H](CO)C(=O)N[C@@H](Cc1ccc(O)cc1)C(=O)N[C@@H](CO)C(=O)N[C@@H](CCSC)C(=O)N[C@@H](CCC(=O)O)C(=O)N[C@@H](Cc1c[nH]cn1)C(=O)N[C@@H](Cc1ccccc1)C(=O)N[C@@H](CCCNC(=N)N)C(=O)N[C@@H](Cc1c[nH]c2ccccc12)C(=O)NCC(=O)N[C@@H](CCCCN)C(=O)N1CCC[C@H]1C(=O)N[C@H](C(N)=O)C(C)C,,,"DIO male Wistar rats, serum","dose not given, 10 weeks, fasted",,AST,106 ± 8 U/L
CN1Cc2cc(Cl)ccc2-n2c(nnc2C2CCN(c3cccc([18F])n3)CC2)C1,,,"C57BL/6 mouse male, pancreas","intravenous, dose not given, 30 min, added: blocking agent 10 mg/kg",,tissue uptake,7.85 ± 4.39 %ID/g
CCn1ccc(-c2cc(-c3cnn(C)c3)cc([C@@H](C)NC(=O)c3cc(OCCN(C)C)ccc3C)c2)n1,,,"C57BL/6J mice, male, plasma","iv, 10 mg/kg",,C0,6250 ng/mL
COc1ccccc1-c1n[nH]c2nc(NC3CCN(C(=O)Cc4ccc(F)cc4F)CC3)ncc12,,"bead binding, competition bead pull-down, refers to: LINJ.35.5450",Leishmania donovani extract,10 µM,reference: vehicle,relative abundance,1.06
C=CC(=O)Nc1cccc(Cn2ncc3cnc(Nc4cnn(CCOC)c4)nc32)c1,,,"Sprague-Dawley rat male, blood","oral, 180 mg/kg, day 28, 28-day subacute toxicity",,mean corpuscular haemoglobin,21.6 ± 1.31 pg
CN(C)[C@H]1C[C@@]23CC[C@@]4(O2)C(=CC[C@]2(C)[C@@H](c5ccc6ccncc6c5)CC[C@H]24)C=C3[C@@H](O)[C@@H]1O,"MELK (Homo sapiens, UniProt Q14680)","ATP probe labelling, inhibitor, KiNativ profiling",,1 µM,,inhibition,-1.2%

# Some of these lines once more:
Compound,tested on,assay,system,setting,how to read,quantity,value
C(#Cc1cncc(OC[C@@H]2CCN2)c1)c1ccccc1,,,"male Sprague-Dawley rat, plasma","oral, 75 mg/kg, 4 h",,concentration,360 ng/mL
CCCCC[C@@H]1NC(=O)[C@@H](C)N(C)C(=O)[C@H](CCCCC)N(C)C(=O)[C@@H](C)N(C)C(=O)[C@H](CCCCC)NC(=O)[C@@H](C)N(C)C(=O)[C@H](CCCCC)N(C)C(=O)[C@@H](C)N(C)C1=O,,"PAMPA, HPLC-UV",,"500 µM, pH 7.4",,log Papp,-5.4 ± 0.05
CC[C@H](C)[C@H](NC(=O)[C@H](Cc1ccccc1)NC(=O)[C@H](CCC(=O)O)NC(=O)[C@H](CCCNC(=N)N)NC(=O)[C@@H](NC(=O)[C@H](C)NC(=O)[C@H](CCC(=O)O)NC(=O)[C@H](CCC(=O)O)NC(=O)[C@H](CCC(=O)O)NC(=O)[C@H](CC(C)C)NC(=O)[C@H](Cc1ccc(O)cc1)NC(=O)[C@H](CCCCN)NC(=O)[C@H](CO)NC(=O)[C@H](CC(C)C)NC(=O)[C@H](CC(=O)O)NC(=O)[C@H](CO)NC(=O)[C@@H](NC(=O)[C@H](Cc1ccccc1)NC(=O)[C@@H](NC(=O)CNC(=O)[C@H](CCC(N)=O)NC(=O)[C@@H](CO)NC(=O)[C@@H](N)Cc1c[nH]cn1)[C@@H](C)O)[C@@H](C)O)C(C)C)C(=O)N[C@@H](C)C(=O)N[C@@H](Cc1c[nH]c2ccccc12)C(=O)N[C@@H](CC(C)C)C(=O)N[C@@H](CCCCN)C(=O)N[C@@H](CC(N)=O)C(=O)NCC(=O)NCC(=O)N1CCC[C@H]1C(=O)N[C@@H](CO)C(=O)N[C@@H](Cc1ccc(O)cc1)C(=O)N[C@@H](CO)C(=O)N[C@@H](CCSC)C(=O)N[C@@H](CCC(=O)O)C(=O)N[C@@H](Cc1c[nH]cn1)C(=O)N[C@@H](Cc1ccccc1)C(=O)N[C@@H](CCCNC(=N)N)C(=O)N[C@@H](Cc1c[nH]c2ccccc12)C(=O)NCC(=O)N[C@@H](CCCCN)C(=O)N1CCC[C@H]1C(=O)N[C@H](C(N)=O)C(C)C,,,"DIO male Wistar rats, serum","dose not given, 10 weeks, fasted",,AST,106 ± 8 U/L
